Measured values of several laboratories.
Every numbered part comes from another study and shows a few of its results, in no order. Several values in a cell are separate wells, animals, samples, runs or records.
UniProt P07333, sequence (whole entry, looked up): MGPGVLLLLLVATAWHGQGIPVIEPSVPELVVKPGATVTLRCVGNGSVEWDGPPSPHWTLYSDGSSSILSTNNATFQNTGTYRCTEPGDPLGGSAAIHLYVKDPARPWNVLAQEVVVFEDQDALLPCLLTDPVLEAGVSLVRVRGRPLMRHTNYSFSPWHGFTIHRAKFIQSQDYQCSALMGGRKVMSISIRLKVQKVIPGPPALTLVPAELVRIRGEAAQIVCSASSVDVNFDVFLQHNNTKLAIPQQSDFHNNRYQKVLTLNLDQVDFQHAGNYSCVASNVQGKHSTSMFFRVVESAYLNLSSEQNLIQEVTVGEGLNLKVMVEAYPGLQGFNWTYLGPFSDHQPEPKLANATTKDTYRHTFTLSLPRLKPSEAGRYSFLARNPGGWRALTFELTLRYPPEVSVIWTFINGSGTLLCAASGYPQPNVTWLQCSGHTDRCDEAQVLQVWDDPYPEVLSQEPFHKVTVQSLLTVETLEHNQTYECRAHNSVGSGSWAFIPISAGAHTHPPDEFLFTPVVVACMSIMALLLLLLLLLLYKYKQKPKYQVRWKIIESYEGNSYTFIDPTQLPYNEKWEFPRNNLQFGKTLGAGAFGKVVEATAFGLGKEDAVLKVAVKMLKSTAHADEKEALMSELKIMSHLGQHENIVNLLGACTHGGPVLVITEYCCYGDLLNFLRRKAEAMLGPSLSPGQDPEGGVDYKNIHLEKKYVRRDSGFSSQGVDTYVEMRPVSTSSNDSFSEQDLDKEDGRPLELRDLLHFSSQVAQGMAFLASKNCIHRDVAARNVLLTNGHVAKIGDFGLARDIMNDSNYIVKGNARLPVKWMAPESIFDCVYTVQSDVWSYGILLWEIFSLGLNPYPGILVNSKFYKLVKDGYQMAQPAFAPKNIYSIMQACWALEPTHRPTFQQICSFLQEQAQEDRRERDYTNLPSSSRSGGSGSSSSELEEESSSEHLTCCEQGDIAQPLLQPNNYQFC
UniProt Q16512, sequence (whole entry, looked up): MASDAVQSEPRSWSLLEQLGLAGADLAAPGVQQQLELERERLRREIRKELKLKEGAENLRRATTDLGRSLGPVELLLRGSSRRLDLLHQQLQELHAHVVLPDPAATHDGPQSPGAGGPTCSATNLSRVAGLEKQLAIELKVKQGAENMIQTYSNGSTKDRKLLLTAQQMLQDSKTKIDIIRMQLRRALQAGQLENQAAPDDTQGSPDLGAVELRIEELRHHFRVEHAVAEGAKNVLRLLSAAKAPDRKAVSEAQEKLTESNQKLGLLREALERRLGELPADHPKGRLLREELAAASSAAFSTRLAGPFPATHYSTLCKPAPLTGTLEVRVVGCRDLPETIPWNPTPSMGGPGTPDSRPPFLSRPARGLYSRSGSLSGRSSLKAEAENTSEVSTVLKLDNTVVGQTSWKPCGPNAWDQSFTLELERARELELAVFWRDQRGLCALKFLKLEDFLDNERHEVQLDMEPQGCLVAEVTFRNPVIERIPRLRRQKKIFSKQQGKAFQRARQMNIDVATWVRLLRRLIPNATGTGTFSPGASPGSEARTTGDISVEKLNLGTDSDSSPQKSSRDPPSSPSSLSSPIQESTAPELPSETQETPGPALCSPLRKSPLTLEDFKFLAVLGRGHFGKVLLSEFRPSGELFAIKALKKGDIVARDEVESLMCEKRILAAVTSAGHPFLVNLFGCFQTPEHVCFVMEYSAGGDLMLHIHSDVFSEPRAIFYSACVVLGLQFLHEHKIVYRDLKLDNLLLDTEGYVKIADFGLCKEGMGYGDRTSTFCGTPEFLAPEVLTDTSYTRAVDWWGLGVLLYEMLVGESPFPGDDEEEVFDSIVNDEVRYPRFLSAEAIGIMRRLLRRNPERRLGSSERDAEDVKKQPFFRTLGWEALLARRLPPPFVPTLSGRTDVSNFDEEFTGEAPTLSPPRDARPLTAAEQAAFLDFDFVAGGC
UniProt P54646, sequence (whole entry, looked up): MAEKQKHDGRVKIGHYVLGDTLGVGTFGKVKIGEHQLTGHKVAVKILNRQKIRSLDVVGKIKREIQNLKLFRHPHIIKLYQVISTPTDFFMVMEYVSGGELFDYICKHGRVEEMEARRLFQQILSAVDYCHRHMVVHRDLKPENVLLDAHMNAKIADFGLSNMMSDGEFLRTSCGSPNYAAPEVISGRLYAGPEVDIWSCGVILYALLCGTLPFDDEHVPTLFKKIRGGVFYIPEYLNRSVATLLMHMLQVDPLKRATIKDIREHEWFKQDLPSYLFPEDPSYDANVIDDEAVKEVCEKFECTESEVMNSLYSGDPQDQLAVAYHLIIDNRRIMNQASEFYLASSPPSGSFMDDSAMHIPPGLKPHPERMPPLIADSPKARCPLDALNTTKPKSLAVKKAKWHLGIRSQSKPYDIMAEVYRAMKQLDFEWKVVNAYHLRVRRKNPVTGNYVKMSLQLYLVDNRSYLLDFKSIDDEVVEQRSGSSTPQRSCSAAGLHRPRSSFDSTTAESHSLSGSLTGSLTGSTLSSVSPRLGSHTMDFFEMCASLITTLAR
UniProt Q14289, sequence (whole entry, looked up): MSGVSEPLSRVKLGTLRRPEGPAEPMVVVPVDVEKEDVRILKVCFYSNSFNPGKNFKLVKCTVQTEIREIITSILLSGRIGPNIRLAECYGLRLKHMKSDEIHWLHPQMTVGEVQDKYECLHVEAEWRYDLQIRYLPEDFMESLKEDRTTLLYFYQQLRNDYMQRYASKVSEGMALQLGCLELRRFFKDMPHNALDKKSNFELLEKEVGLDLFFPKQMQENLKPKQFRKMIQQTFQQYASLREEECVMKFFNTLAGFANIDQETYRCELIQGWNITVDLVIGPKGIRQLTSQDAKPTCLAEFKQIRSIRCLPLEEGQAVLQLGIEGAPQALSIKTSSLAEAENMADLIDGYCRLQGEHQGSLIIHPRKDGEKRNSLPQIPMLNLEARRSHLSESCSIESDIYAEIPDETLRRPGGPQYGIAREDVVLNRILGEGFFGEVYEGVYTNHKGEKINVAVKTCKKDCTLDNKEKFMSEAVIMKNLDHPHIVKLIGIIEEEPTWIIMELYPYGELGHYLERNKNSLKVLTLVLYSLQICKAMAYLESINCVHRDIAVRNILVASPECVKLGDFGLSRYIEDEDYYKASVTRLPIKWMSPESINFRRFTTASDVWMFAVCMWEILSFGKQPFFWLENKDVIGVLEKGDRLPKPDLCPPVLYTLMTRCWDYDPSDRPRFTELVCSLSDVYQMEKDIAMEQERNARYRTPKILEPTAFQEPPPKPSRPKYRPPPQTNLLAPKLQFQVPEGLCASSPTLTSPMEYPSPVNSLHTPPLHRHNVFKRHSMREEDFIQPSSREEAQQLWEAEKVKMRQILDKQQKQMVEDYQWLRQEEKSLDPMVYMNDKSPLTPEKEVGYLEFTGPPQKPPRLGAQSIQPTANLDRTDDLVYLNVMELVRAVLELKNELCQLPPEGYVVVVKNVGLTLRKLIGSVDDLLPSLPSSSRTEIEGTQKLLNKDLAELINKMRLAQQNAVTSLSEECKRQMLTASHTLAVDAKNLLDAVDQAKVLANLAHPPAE

Series 1
SMILES: Cc1ncsc1-c1ccc(C(CO)NC(=O)C2CC(O)CN2C(=O)C(C(C)C)n2cc(-c3ccc(COc4c(-c5c(C)c(F)cc6[nH]ncc56)c(C5CC5)cc5c(N6CC7CC6CN7)nc(OC6CCOCC6)nc45)cc3)nn2)cc1 (stereo not drawn)
Effect on: cell growth or viability
Method: ATP luminescence
Time: 6 days
cell line | concentration | viability
HPAC | 1 nM | 71.1% and 69.6% and 48.5% and 54.6%
COLO 320 | 0.3 µM | 94.9% and 104% and 84.1% and 101%
NCI-H1299 | 10 µM | 1.01% and 1.79% and 1.6% and 3.08%
LCLC-97TM1 | 0.1 µM | 94.6% and 92.8% and 104% and 97.6%
BXPC-3 | 1 nM | 102% and 95% and 108% and 91.3%
T24 | 10 µM | 72.4% and 39.3% and 55.9% and 58.2%
NCI-H1299 | 1 µM | 106% and 86.9% and 117% and 107%

Series 2
SMILES: C[C@@H]1CN(c2ccc(-c3cc(C(=O)NCCOCCOCCOCCOCCNC(=O)/C=C/c4[nH]cc(C(=O)N[C@@H](CC(N)=O)c5ccc(F)c(Cl)c5)c4-c4ccc(Cl)cc4F)ccc3F)cc2NC(=O)c2c[nH]c(=O)cc2C(F)(F)F)C[C@H](C)N1C
Effect on: thermal unfolding
Method: differential scanning fluorimetry
Concentration: 5.5 µM
Direction: higher = more unfolded
DCAF1: DDB1- and CUL4-associated factor 1 (DCAF1, Homo sapiens, UniProt Q9Y4B6)
UniProt Q9Y4B6, sequence (whole entry, looked up): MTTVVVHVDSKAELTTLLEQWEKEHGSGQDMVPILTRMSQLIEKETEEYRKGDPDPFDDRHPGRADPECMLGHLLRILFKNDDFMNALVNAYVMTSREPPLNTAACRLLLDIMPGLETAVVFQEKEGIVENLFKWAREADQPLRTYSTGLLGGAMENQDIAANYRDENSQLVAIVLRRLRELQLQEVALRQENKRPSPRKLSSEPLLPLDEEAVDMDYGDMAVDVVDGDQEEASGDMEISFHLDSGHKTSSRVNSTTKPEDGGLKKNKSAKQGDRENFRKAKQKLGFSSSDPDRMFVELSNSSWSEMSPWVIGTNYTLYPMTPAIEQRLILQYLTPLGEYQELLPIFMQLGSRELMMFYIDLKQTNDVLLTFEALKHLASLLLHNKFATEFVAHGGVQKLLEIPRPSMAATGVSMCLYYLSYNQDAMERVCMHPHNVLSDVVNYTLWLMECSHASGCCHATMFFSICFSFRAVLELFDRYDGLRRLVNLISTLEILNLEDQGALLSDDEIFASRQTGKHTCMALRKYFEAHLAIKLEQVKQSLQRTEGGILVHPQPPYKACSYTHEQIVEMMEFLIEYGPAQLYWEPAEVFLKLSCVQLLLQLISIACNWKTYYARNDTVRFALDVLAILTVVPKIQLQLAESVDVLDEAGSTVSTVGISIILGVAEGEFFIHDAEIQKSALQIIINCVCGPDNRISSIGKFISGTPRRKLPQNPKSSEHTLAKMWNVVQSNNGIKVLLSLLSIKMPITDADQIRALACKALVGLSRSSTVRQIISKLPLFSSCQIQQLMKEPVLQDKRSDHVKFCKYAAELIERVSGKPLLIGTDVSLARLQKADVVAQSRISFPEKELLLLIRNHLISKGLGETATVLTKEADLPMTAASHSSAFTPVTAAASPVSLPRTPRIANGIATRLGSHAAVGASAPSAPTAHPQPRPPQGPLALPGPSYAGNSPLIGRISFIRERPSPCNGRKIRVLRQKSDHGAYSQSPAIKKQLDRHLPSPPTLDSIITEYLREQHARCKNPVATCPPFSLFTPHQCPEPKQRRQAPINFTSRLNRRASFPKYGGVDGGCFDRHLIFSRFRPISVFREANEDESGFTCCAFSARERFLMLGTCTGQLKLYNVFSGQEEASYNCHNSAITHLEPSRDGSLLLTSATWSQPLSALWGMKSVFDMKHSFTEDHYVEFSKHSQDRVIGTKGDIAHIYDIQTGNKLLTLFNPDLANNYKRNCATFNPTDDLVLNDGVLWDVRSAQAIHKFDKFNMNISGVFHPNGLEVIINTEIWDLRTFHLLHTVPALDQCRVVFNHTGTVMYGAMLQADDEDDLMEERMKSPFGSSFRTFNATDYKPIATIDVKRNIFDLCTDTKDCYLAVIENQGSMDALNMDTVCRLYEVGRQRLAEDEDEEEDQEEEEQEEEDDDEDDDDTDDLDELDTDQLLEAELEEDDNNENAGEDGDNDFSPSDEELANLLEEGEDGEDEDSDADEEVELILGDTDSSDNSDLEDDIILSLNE
WDR5: WD repeat-containing protein 5 (WDR5, Homo sapiens, UniProt P61964)
target | temperature | SYPRO Orange fluorescence [a.u.]
DCAF1 | 86.01 °C | 39000
WDR5 | 57.81 °C | 16300
DCAF1 | 63.01 °C | 53900
WDR5 | 91.21 °C | 49500
WDR5 | 42.4 °C | 15000
WDR5 | 28 °C | 12900
WDR5 | 75.41 °C | 26800
WDR5 | 26.8 °C | 13000

Series 3
Compound: CNc1ncc2cc(-c3cc(OC)cc(OC)c3Cl)c(=O)n(CCc3ccc(NC(=O)C(C#N)=CC(C)(C)N4CCOCC4)cc3)c2n1
target | effect on | concentration | setting | inhibition
SRPK1 (Homo sapiens, UniProt Q96SB4) | kinase activity | 1 µM | – | -11%
PRKAA2 (Homo sapiens, UniProt P54646) | kinase activity | 1 µM | – | 0%
KDR (Homo sapiens, UniProt P35968) | kinase activity | 1 µM | – | 85%
CK1 | – | 0.1 µM | mean | 0%
Cyclin-dependent kinase 5, with p25 (CDK5, Homo sapiens, UniProt Q00535) | kinase activity | 1 µM | – | 0%
PKN1 (Homo sapiens, UniProt Q16512) | kinase activity | 0.1 µM | – | -3%
EPHA5 (Homo sapiens, UniProt P54756) | kinase activity | 1 µM | – | 14%
MERTK (Homo sapiens, UniProt Q12866) | kinase activity | 0.1 µM | – | 2%
Cyclin-dependent kinase 3, with cyclin E (CDK3, Homo sapiens, UniProt Q00526) | kinase activity | 0.1 µM | – | -4%
PTK2B (Homo sapiens, UniProt Q14289) | kinase activity | 1 µM | – | 3%
PIK3CD (Homo sapiens, UniProt O00329) | kinase activity | 0.1 µM | – | -6%
AKT1 (Homo sapiens, UniProt P31749) | kinase activity | 1 µM | – | -1%
JAK3 (Homo sapiens, UniProt P52333) | kinase activity | 1 µM | – | -5%
CSF1R (Homo sapiens, UniProt P07333) | kinase activity | 0.1 µM | – | 83%

Mixed results
SMILES | tested on | assay | system | setting | scale | endpoint | value
Cc1ccc(O)c(C)c1-c1cnc2[nH]c(-c3cnc(N4CCC(CN5CCN(c6cc7c(cc6F)n(C6CCC(=O)NC6=O)c(=O)n7C)CC5)CC4)nc3)cc2c1C#N (stereo not drawn) | – | – | CD-1 mouse, female, plasma | intravenous, 1 mg/kg | – | plasma clearance | 45.5 mL/min/kg
Cc1ccc(O)c(C)c1-c1cnc2[nH]c(-c3cnc(N4CCC5(CC4)CC(CN4CCN(c6ccc(NC7CCC(=O)NC7=O)cc6F)CC4)C5)nc3)cc2c1C#N (stereo not drawn) | – | – | female CD-1 mouse, plasma | oral, 20 mg/kg | – | AUC(0-t) | 4000 ng·h/mL
Cc1ccc(O)c(C)c1-c1cnc2[nH]c(-c3cnc(N4CCC5(CC4)CC(N4CCN(c6ccc(N[C@H]7CCC(=O)NC7=O)cc6F)CC4)CO5)nc3)cc2c1C#N (single isomer, unassigned) | ABL1 phosphorylated human | KINOMEscan | – | 1000 nM | relative to: control | binding remaining | 83%
Cc1ccc(O)c(C)c1-c1cnc2[nH]c(-c3cnc(N4CCC(CN5CCN(c6ccc(NC7CCC(=O)NC7=O)cc6F)CC5)CC4)nc3)cc2c1C#N (stereo not drawn) | – | – | male beagle dog, plasma | intravenous, 1 mg/kg | – | Vd | 2.5 L/kg
